Results pooled from the literature.
Each numbered part is a random draw from the data of one study; scales do not carry over between parts. Positions count from the first letter of the parent shown.

Sample 1
Target: Interferon regulatory factor 5, full length, phosphomimetic (IRF5, Homo sapiens, UniProt Q13568-2, residues 1-514, S451D/S453D/S456D/S462D)
Method: protein-binding microarray
Molecule type: double-stranded DNA, one strand shown
Medium: in vitro
Tested at: 940 nM top
Notes: 60-bp whole probe
Added: salmon DNA 0.4 mg/ml
Relative to: random background probes
Direction: higher = stronger binding
Endpoint: fitted relative affinity
Constant ends, left off below: GCCTAGCAC … GTCTTGATTCGCTTGACGCTGCTG
GACGATTTCAGACTGGCGACGTGCTAG: -0.431 z-score
TCATTTATCCCTGACAGACTGTGCTAG: 0.859 z-score
CACGGTCTCGGTATCGGGACGTGCTAG: 4.65 z-score
TTCACTTTCTTTAACATATTGTGCTAG: 2.42 z-score
GACGGTCTCGAACTGGGGACGTGCTAG: 0.0959 z-score
ATCTTCATGAAGTTTTAATAAGTGCTA: -0.218 z-score
GACGATTTCAGTTTCGCGACGTGCTAG: 2.15 z-score
TTAGATTCCAGTTTCGTTTAGTGCTAG: 6.39 z-score

Sample 2
Target: CEP164, C-terminal peptide (human)
Method: DHFR complementation, deep sequencing
Medium: yeast
Notes: single substitutions, model-inferred values
Relative to: wild type
Direction: higher = weaker binding
Endpoint: binding free energy change
Starting sequence: PDZK1, PDZ domain 2 (human); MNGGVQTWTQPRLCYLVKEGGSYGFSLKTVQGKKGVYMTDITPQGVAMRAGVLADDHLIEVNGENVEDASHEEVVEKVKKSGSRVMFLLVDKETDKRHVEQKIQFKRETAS; partner HNRVKVYRF
L27R: 1.02 kcal/mol
E67F: 0.393 kcal/mol
V78R: 1.95 kcal/mol
K18A: 0.244 kcal/mol
R107H: -0.077 kcal/mol
A54T: 0.0173 kcal/mol

Sample 3
Target: CCNB3, cyclin fold, Cln2 fusion (human)
Method: yeast growth competition, sequencing
Medium: yeast
Notes: weak parent motif
Relative to: not given
Direction: higher = stronger binding
Endpoint: normalised enrichment score
Starting sequence: MASTL docking peptide (human); PMIAKNLMCELDE
E10P: 0.00344
M2K: -0.0718
C9R: 0.0326
N6P: -0.0355
K5T: 0.00469
K5S: -0.448

Other studies, line by line
PhoQ, residues 284 288 289 292 302 303 TTCLQL  fold induction (PhoP, residues 12 14 15 18 19 NFCKL (Escherichia coli, UniProt P23836); Sort-seq, refers to: YFP reporter; E. coli; PhoQ-PhoP variant library, added: 10 µM Mg2+; relative to: high Mg2+ state, higher = stronger signaling): 14.2

For quick reference, copied from above (sample 3):
N6P: -0.0355
K5T: 0.00469
